Published values gathered from unrelated publications.
Compare with care: the assays were run in different laboratories. Values joined by “and” are separate records of one study, mostly repeats; a detail may differ. Numbers after ± are the reported error.

Compound | assay | test system | setting | how to read | measurement | result
Cc1ccc(N(O)/N=N/c2ccc(S(=O)(=O)Nc3nccs3)cc2)cc1 | ABTS scavenging | – | 240 µg/mL | – | inhibition | 99.8%
COC1OC(C)C(OC2OC(C)C(O)C(OC3OC(C)C(OC4OC(C)C(O)C(OC5OC(C)C(OC6OC(C)C(O)C(OC7OC(C)C(OC8OC(C)C(O)C(OC9OC(C)C(O)C(OS(=O)(=O)O)C9OS(=O)(=O)O)C8OS(=O)(=O)O)C(OS(=O)(=O)O)C7OS(=O)(=O)O)C6OS(=O)(=O)O)C(OS(=O)(=O)O)C5OS(=O)(=O)O)C4OS(=O)(=O)O)C(OS(=O)(=O)O)C3OS(=O)(=O)O)C2OS(=O)(=O)O)C(OS(=O)(=O)O)C1OS(=O)(=O)O (stereo not drawn) | – | human plasma | 32 µg/mL | – | activated partial thromboplastin time | 68.7 s and 69.6 s and 70.5 s
COc1ccc(NC(=O)c2ccc3[nH]c(-c4ccc(N(C)C)cc4)nc3c2)cn1 | – | CT26, BALB/c mice, subcutaneous syngeneic graft | dose not given, day 14 | – | tumour volume | 153 mm3 and 673 mm3 and 970 mm3 and 877 mm3 and 515 mm3
COc1cc(O)ccc1CCC(c1ccc(O)cc1)c1cc2c(c(C)c1O)OC(c1ccc(O)cc1)CC2 (mixture of isomers) | refers to: docosahexaenoic acid | human whole blood | 3 µM, with: Escherichia coli | – | amount | 23800 ± 2860 pg/mL blood
COC1OC(C)C(O)C(OC2OC(C)C(O)C(OS(=O)(=O)O)C2OS(=O)(=O)O)C1OS(=O)(=O)O (stereo not drawn) | – | human plasma | 128 µg/mL | – | activated partial thromboplastin time | 33.3 ± 0.5 s
CC(C)C[C@H](NC(=O)[C@H](Cc1ccccc1)NC(=O)[C@H](C)NC(=O)[C@@H](CS)NC(=O)CNC(=O)[C@H](N)CO)C(=O)N[C@@H](CO)C(=O)N[C@H](C(=O)N[C@@H](CCCCN)C(=O)N[C@@H](CCCCN)C(=O)N[C@@H](CCC(N)=O)C(=O)N[C@@H](Cc1ccccc1)C(=O)N[C@@H](CCC(=O)O)C(=O)N[C@@H](CCC(=O)O)C(=O)N[C@@H](CC(C)C)C(=O)N[C@H](C(=O)N[C@@H](CC(C)C)C(=O)NCC(=O)N[C@@H](CCC(=O)O)C(=O)N[C@@H](Cc1ccccc1)C(=O)N[C@@H](CC(C)C)C(=O)N[C@H](CCCCN)C(=O)N[C@H](CC(C)C)C(=O)N[C@H](CC(=O)O)C(=O)N[C@@H](CCCNC(=N)N)C(=O)N[C@H](CCCNC(=N)N)C(=O)N[C@@H](CCCNC(=N)N)C(=O)N[C@@H](CCCCN)C(=O)O)[C@@H](C)O)C(C)C | – | mouse A549 xenograft, tumour | intratumoral and intravenous, dose not given | – | NLRP3 level | decreased
CN1CCC[C@]1(C)/C=C/S(=O)(=O)NC(=O)Nc1c2c(cc3c1CCC3)CCC2 | – | human, whole blood ex vivo | 50 mg twice daily, day 14, 24 h, multiple ascending dose, with: LPS and ATP | – | IL-1β inhibition | 98.8%
O=C(c1ccc(C2CCCCC2)cc1)N1CCCC1 | liver microsome stability | cynomolgus liver microsomes | 1 µM | – | hepatic clearance | 41 mL/min/kg
CC(=O)[O-].O.O.O.O.[Mn+2].[O-]c1ccc(Br)cc1C=NCCN1CCOCC1 | nitric oxide scavenging | – | 120 µM | – | inhibition | 19.4%
COC1OC(C)C(O)C(OC2OC(C)C(O)C(OC3OC(C)C(O)C(OC4OC(C)C(O)C(OC5OC(C)C(O)C(OC6OC(C)C(O)C(OC7OC(C)C(O)C(OC8OC(C)C(O)C(OS(=O)(=O)O)C8OS(=O)(=O)O)C7OS(=O)(=O)O)C6OS(=O)(=O)O)C5OS(=O)(=O)O)C4OS(=O)(=O)O)C3OS(=O)(=O)O)C2OS(=O)(=O)O)C1OS(=O)(=O)O (stereo not drawn) | – | human plasma | 128 µg/mL | – | activated partial thromboplastin time | 40 ± 0.6 s
CCCCCCCCCCCCCCCC(=O)OCC(CSC[C@H](N)C(=O)N[C@@H](CO)C(=O)N[C@@H](CCCCN)C(=O)N[C@@H](CCCCN)C(=O)N[C@@H](CCCCN)C(=O)N[C@@H](CCCCN)C(=O)NCCCCCC(=O)N[C@@H](CCCCN)C(=O)N[C@@H](CC(C)C)C(=O)N[C@H](C(=O)N[C@@H](Cc1ccccc1)C(=O)N[C@@H](Cc1ccccc1)C(=O)N[C@@H](Cc1ccc2ccccc2c1)C(=O)O)C(C)C)OC(=O)CCCCCCCCCCCCCCC (stereo partly drawn) | OC antibody staining, refers to: amyloid-beta oligomer | APP/PS1 transgenic mouse, cortex | intracortical injection, dose not given | – | OC-positive area | 3.2% and 6.67% and 6.66%
COC1OC(C)C(O)C(OC2OC(C)C(O)C(OC3OC(C)C(O)C(OS(=O)(=O)O)C3OS(=O)(=O)O)C2OS(=O)(=O)O)C1OS(=O)(=O)O (stereo not drawn) | – | human plasma | 128 µg/mL | – | activated partial thromboplastin time | 33.3 ± 0.5 s
NC[C@@H](C(=O)Nc1ccc(-c2cn[nH]c2)cc1)c1ccccc1 | tonometry | Macaca cyclopis, ocular normotensive | ocular, 0.03%, 72 h | – | IOP | 18.8 mmHg
COC1OC(C)C(OS(=O)(=O)O)C(OC2OC(C)C(OS(=O)(=O)O)C(OC3OC(C)C(OS(=O)(=O)O)C(OC4OC(C)C(OS(=O)(=O)O)C(OC5OC(C)C(OS(=O)(=O)O)C(OC6OC(C)C(OS(=O)(=O)O)C(OS(=O)(=O)O)C6OS(=O)(=O)O)C5OS(=O)(=O)O)C4OS(=O)(=O)O)C3OS(=O)(=O)O)C2OS(=O)(=O)O)C1OS(=O)(=O)O (stereo not drawn) | – | human plasma | 64 µg/mL | – | activated partial thromboplastin time | 128 s and 127 s
COc1cc2c(NC3CCN(C(C)C)CC3)cc(N3CCOCC3)nc2cc1OCCCN1CCCC1 | TMT proteomics, refers to: GMFB | 5xFAD mice, hippocampus | dose not given, unit not given | relative to: untreated 5xFAD | protein level difference | -0.0185
COC1OC(C)C(OS(=O)(=O)O)C(OC2OC(C)C(OS(=O)(=O)O)C(OC3OC(C)C(OS(=O)(=O)O)C(OC4OC(C)C(OS(=O)(=O)O)C(OS(=O)(=O)O)C4OS(=O)(=O)O)C3OS(=O)(=O)O)C2OS(=O)(=O)O)C1OS(=O)(=O)O (stereo not drawn) | – | human plasma | 32 µg/mL | – | activated partial thromboplastin time | 50.1 s and 50.7 s and 50.2 s
COC(=O)C1CN1S(=O)(=O)c1ccc2cc(C)ccc2c1 (stereo not drawn) | – | mouse, Lewis lung carcinoma | ip, 100 mg/kg, 216 h | – | tumour volume | 316 mm3
CN1CCC(c2ccc(-c3ccc([C@H]4[C@@H](F)[C@@H](F)C[C@@H](F)[C@H]4F)cc3)cn2)CC1 | liver microsome stability | human liver microsomes | 1 µM, without NADPH | – | hepatic clearance | 9.2 mL/min/kg
CCC(=O)N[C@@H](C)C(=O)OCC(=O)N[C@@H](C)C(=O)O | – | water | pH 8, 25 °C | – | chain scission rate constant | 0.0154 h⁻¹
COCC1CN(C2CCN(c3cc(OC)c(Nc4ncc(Br)c(Nc5ccc6c(c5P(C)(C)=O)OCCO6)n4)cc3C)CC2)C1 | RECIST 1.1 | advanced EGFR-mutant NSCLC patients | 30 mg once daily | – | disease control rate | 33.3%
COc1cc(N2CCN(C(=O)C3CCCN3)CC2)ccc1Nc1ncc(Cl)c(Nc2ccccc2P(C)(C)=O)n1 (stereo not drawn) | – | nude mice, NCI-H3122 xenograft | intraperitoneal, 10 mg/kg every other day, day 15 | – | tumour volume | 101 mm3 and 90.9 mm3 and 55.8 mm3 and 131 mm3 and 82.3 mm3
CCCCCCCCCCCCCCCC(=O)NCCCC[C@H](NC(=O)[C@H](CCC(=O)O)NC(=O)[C@H](Cc1ccc(O)cc1)NC(=O)[C@H](CCC(=O)O)NC(=O)COCC(=O)NCCCOCCOCCOCCCNC(=O)[C@H](Cc1ccccc1)NC(=O)[C@H](CC(N)=O)NC(=O)[C@H](Cc1c[nH]cn1)NC(=O)[C@@H](NC(=O)[C@H](CC(=O)O)NC(=O)[C@H](CCC(N)=O)NC(=O)[C@H](CC(C)C)NC(=O)[C@H](CCCCN)NC(=O)[C@H](CCCCN)NC(=O)[C@H](CCCNC(=N)N)NC(=O)[C@H](CC(C)C)NC(=O)[C@H](Cc1c[nH]c2ccccc12)NC(=O)[C@H](CCC(=O)O)NC(=O)[C@@H](NC(=O)[C@H](CCCNC(=N)N)NC(=O)[C@H](CCC(=O)O)NC(=O)[C@H](CCSC)NC(=O)[C@H](CO)NC(=O)[C@H](CC(N)=O)NC(=O)[C@H](CC(C)C)NC(=O)[C@H](Cc1c[nH]cn1)NC(=O)[C@H](CCCCN)NC(=O)CNC(=O)[C@H](CC(C)C)NC(=O)[C@H](CC(N)=O)NC(=O)[C@H](Cc1c[nH]cn1)NC(=O)[C@H](CCSC)NC(=O)[C@H](CC(C)C)NC(=O)[C@H](CCC(N)=O)NC(=O)[C@@H](NC(=O)[C@H](CCC(=O)O)NC(=O)[C@H](CO)NC(=O)[C@@H](NC(=O)[C@@H](N)CO)C(C)C)[C@@H](C)CC)C(C)C)C(C)C)C(=O)N[C@@H](CCC(=O)O)C(=O)N[C@@H](Cc1ccc(O)cc1)C(=O)N[C@@H](CCC(=O)O)C(N)=O | micro-CT | humanized PTH1R mouse, femur | dose not given | – | bone mineral density | 422 mgHA/cm3 and 451 mgHA/cm3
COC1CN([C@H]2CC[C@H]([C@@]3(C)Oc4c(Cl)cc(C(=O)NCc5c(SC)cc(C)[nH]c5=O)c(C)c4O3)CC2)C1 | RNA-seq, refers to: DAAM2 mouse homolog | mouse, HT-1376 xenograft, whole blood | dose not given | relative to: vehicle | log2 fold change | 0.144
COC1OC(C)C(OS(=O)(=O)O)C(OC2OC(C)C(OS(=O)(=O)O)C(OS(=O)(=O)O)C2O)C1O (stereo not drawn) | – | human plasma | 128 µg/mL | – | activated partial thromboplastin time | 36.3 ± 0.7 s
CC(C)(C)NCC(SS(=O)(=O)O)c1ccccc1 (stereo not drawn) | – | Swiss Webster mice, Schistosoma mansoni-infected | 100 mg/kg x 4 doses from day 42 post-infection, perfusion day 56 post-infection | relative to: vehicle | spleen weight decrease | 42%
COC1OC(C)C(OS(=O)(=O)O)C(OC2OC(C)C(OS(=O)(=O)O)C(OC3OC(C)C(OS(=O)(=O)O)C(OC4OC(C)C(OS(=O)(=O)O)C(OC5OC(C)C(OS(=O)(=O)O)C(OC6OC(C)C(OS(=O)(=O)O)C(OC7OC(C)C(OS(=O)(=O)O)C(OC8OC(C)C(OS(=O)(=O)O)C(OC9OC(C)C(OS(=O)(=O)O)C(OC%10OC(C)C(OS(=O)(=O)O)C(OS(=O)(=O)O)C%10OS(=O)(=O)O)C9OS(=O)(=O)O)C8OS(=O)(=O)O)C7OS(=O)(=O)O)C6OS(=O)(=O)O)C5OS(=O)(=O)O)C4OS(=O)(=O)O)C3OS(=O)(=O)O)C2OS(=O)(=O)O)C1OS(=O)(=O)O (stereo not drawn) | – | human plasma | 32 µg/mL | – | activated partial thromboplastin time | 95 s and 97.2 s and 101 s
Nc1nc2cc(CC[C@H]3C[C@@H](n4ccc5c(N)ncnc54)[C@H](O)[C@@H]3O)ccc2cc1Br | – | NCI-H441 xenograft, mouse | 3.0 mg/kg/day, day 38 | – | %ΔTGI | 118%

For quick reference, copied from above:
Compound | assay | test system | setting | how to read | measurement | result
COC1OC(C)C(O)C(OC2OC(C)C(O)C(OC3OC(C)C(O)C(OS(=O)(=O)O)C3OS(=O)(=O)O)C2OS(=O)(=O)O)C1OS(=O)(=O)O (stereo not drawn) | – | human plasma | 128 µg/mL | – | activated partial thromboplastin time | 33.3 ± 0.5 s
CN1CCC[C@]1(C)/C=C/S(=O)(=O)NC(=O)Nc1c2c(cc3c1CCC3)CCC2 | – | human, whole blood ex vivo | 50 mg twice daily, day 14, 24 h, multiple ascending dose, with: LPS and ATP | – | IL-1β inhibition | 98.8%
CCCCCCCCCCCCCCCC(=O)NCCCC[C@H](NC(=O)[C@H](CCC(=O)O)NC(=O)[C@H](Cc1ccc(O)cc1)NC(=O)[C@H](CCC(=O)O)NC(=O)COCC(=O)NCCCOCCOCCOCCCNC(=O)[C@H](Cc1ccccc1)NC(=O)[C@H](CC(N)=O)NC(=O)[C@H](Cc1c[nH]cn1)NC(=O)[C@@H](NC(=O)[C@H](CC(=O)O)NC(=O)[C@H](CCC(N)=O)NC(=O)[C@H](CC(C)C)NC(=O)[C@H](CCCCN)NC(=O)[C@H](CCCCN)NC(=O)[C@H](CCCNC(=N)N)NC(=O)[C@H](CC(C)C)NC(=O)[C@H](Cc1c[nH]c2ccccc12)NC(=O)[C@H](CCC(=O)O)NC(=O)[C@@H](NC(=O)[C@H](CCCNC(=N)N)NC(=O)[C@H](CCC(=O)O)NC(=O)[C@H](CCSC)NC(=O)[C@H](CO)NC(=O)[C@H](CC(N)=O)NC(=O)[C@H](CC(C)C)NC(=O)[C@H](Cc1c[nH]cn1)NC(=O)[C@H](CCCCN)NC(=O)CNC(=O)[C@H](CC(C)C)NC(=O)[C@H](CC(N)=O)NC(=O)[C@H](Cc1c[nH]cn1)NC(=O)[C@H](CCSC)NC(=O)[C@H](CC(C)C)NC(=O)[C@H](CCC(N)=O)NC(=O)[C@@H](NC(=O)[C@H](CCC(=O)O)NC(=O)[C@H](CO)NC(=O)[C@@H](NC(=O)[C@@H](N)CO)C(C)C)[C@@H](C)CC)C(C)C)C(C)C)C(=O)N[C@@H](CCC(=O)O)C(=O)N[C@@H](Cc1ccc(O)cc1)C(=O)N[C@@H](CCC(=O)O)C(N)=O | micro-CT | humanized PTH1R mouse, femur | dose not given | – | bone mineral density | 422 mgHA/cm3 and 451 mgHA/cm3
